# Experimental data collected from several papers.
# Each numbered part is a random draw from the data of one study; scales do not carry over between parts. Positions count from the first letter of the parent shown.

# Series 1
# Target: CCNE2, cyclin fold, Cln2 fusion (human)
# Method: yeast growth competition, sequencing
# Medium: yeast
# Setting: weak parent motif
# Reference: not given
# Direction: higher = stronger binding
# Starting sequence: PKN2 docking peptide (human); VSAVQKLDFSDTM; partner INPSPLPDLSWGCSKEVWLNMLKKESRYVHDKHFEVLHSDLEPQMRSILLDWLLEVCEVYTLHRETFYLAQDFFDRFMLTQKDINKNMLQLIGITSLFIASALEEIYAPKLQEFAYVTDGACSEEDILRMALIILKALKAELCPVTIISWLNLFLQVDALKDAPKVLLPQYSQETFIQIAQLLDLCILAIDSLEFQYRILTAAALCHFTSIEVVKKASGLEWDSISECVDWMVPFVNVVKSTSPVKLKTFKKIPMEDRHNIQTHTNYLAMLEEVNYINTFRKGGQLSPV
Change,normalised enrichment score
D8S,0.471
Q5A L7A,0.167
S2A,0.587
A3H,0.634
M13T,0.31
D11T,0.658
M13L,0.405
S2M,-0.0165
L7R,-0.131
L7V,-0.57
S2C,-0.273
A3I,0.35
V1Q,0.311
D8R,0.258
V4Q,-0.38
M13A,0.0615
V4D,-0.503
K6Y,-0.736
D8C,0.6
V4C,-0.236
A3Q,0.0633
A3P,0.398
S2R,0.411
S2L,-0.231
D11F,-0.167

# Series 2
# Target: RNA binding protein fox-1 homolog 2, RRM domain, GST-SBP tag (RBFOX2, Homo sapiens, UniProt O43251-10, residues 100-194)
# Method: RNA Bind-n-Seq
# Molecule type: RNA
# Medium: in vitro
# Tested at: 365 nM
# Setting: natural RNA segment, single round, ends assumed
# Reference: no-protein control
# Direction: higher = stronger binding
# Constant ends, left off below: GGGAGUUCUACAGUCCGACGAUC … UGGAAUUCUCGGGUGCCAA
# Construct (chain): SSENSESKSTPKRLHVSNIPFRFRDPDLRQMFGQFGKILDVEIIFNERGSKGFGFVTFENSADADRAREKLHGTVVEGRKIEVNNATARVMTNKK
Sequence,RBNS enrichment (R)
CAAGCCCAGCCCACCUUAGCAUGUAUCACUCUGUGGAGAAUAAAGCACCCUGUGUACACAGCCAGAAGCCACACCGCCUGUGCUCCUGAAUCCUGGUCCAGCCCUCCCCA,1.56
ACAUCAAGCAUCAUCGUCCCCAUGCAACAACAACCAUCACCUUAUACAUCACUUCCUGUUUUAUGCAGCUCAAAAAACAUAGACUGAAGAUUUAUUUUUUAAUAUGUUGA,0.331
CGGCAGACGCCGGUAGAUAGUCCAGAUGACACAGCCCUCAGUGAGAGUGCCAACCAAGCCUUCCUGGGCUUUACAUAUGUGGCACCUUCUGUCCUGGACAGCAUCAAAGA,0.855
UGUGAAUGUGAAAACCUAACUGGUACACUUGAUCUUGUGUUCAUAUGAAAGUGCAAGUCUUUAUUAAUUUGGAUUGCCUGAACAGUGUAUCCCAUGAUGAUGAAGGAAAA,0.645
AGCAACUUCCUGGGAAGCUAAUUUAUUUGUCUAAAGGGUGGUGUGGGCAUCACCACCCUUGUUUGAUCUGCCUUGGAUUUCCUCUUGGAGCUUAUGUGCAGAUAGAGGUU,1.1
UCCACUCUCCUCCUCUUUUUGAUACCCACCCUCACUAGCUGCCUCCAGCUCUGGAGUGGGGUGCUAUUCUGGCAGUAUCUGGAACUUGGCCUACAGCUUCCUCUGCAGGG,0.387
GGCCUCCUCGGGUGCCUGUGGUGGUCCACCUGGUGCACAGACAAACACCCAAUACACACAAAACAAAAGUAACUCAAGAAUAGCCUGGGCUACAUAGCAAGAGCCUGUCU,0.518
UCUGCAUUUAACUACAAAAAAAGUUUAUGUUUAGUUUGGUAGAGGUGUUAUGUAUAAUGCUUUGUUAAAGAACCCCCUUUCCGUGCCACUGGUGAAUAGGGAUUAAUGAA,4.91
UUGGUAUUCACUUGGGUUUGAUAAUUGAUCUGAGCUACCUCAUUGAAUGUUUUUGGAAAGGUGUUUUUUGGUAUGCAAGUCAGCUUUGCCUCACAGUUGAAAAUGUUCGG,0.838
UACAUAAAAGAAUUUUUUUGUCUUUAAAUAGAUACAAAUGUCUAUCAACUUUAAUCAAGUUGUAACUUAUAUUGAAGACAAUUUGAUACAUAAUAAAAAAUUAUGACAAU,0.497
UUGUGGAAUUUAAGAAAUACAUUUUGUGUGCAUAUUGUUUCAUAGCAAGAAUUGGUUGCAAAAAAAUGCUUUAUUUUUGAACAAUGCUUGGAAAUAUUAUGUGACUUUUU,0.621
UGCCGUACUGCAUCAUCAUUUGUUUUCUUUGUAGACACUGAAAUCCUAUCAGGAGGAUUCCUUCACAAUGUAUUUUAUUUGCUAGACUUUGGUUGGGAGGGAAAAGGACA,1

# Series 3
# Target: PABPC1L2, full length, GST fusion (mouse, UniProt A0ABA7IW68)
# Method: RNAcompete
# Molecule type: RNA
# Medium: in vitro
# Tested at: 20 nM
# Setting: 7-mer, probes averaged, single round
# Reference: mean of 7-mers
# Direction: higher = stronger binding
# Residues (chain): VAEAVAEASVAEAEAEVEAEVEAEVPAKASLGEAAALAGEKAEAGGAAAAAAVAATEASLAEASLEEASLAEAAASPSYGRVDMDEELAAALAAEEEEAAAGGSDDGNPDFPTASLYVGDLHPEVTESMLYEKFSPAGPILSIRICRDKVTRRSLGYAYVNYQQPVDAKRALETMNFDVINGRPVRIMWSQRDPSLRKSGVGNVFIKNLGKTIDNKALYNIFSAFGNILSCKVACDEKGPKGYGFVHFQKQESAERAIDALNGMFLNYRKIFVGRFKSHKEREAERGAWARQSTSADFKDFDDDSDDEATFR
Sequence,7-mer Z-score
UGGCUUU,-0.126
UGCGCGC,-0.296
UUUUGCA,-0.211
UGAGUAC,-0.141
CCACUCG,-0.266
UCUAGUU,-0.371
UGUGUCU,-0.362
CUCGGUA,-0.0627
ACGGGCC,0.0315
ACAAGAG,0.392
GAAACAG,2.12
CCCGAUC,-0.262
CAUGCAU,-0.291
AGGCCCU,-0.269
GAACUGC,-0.202
UAUAAAA,4.54
AGGUAAU,0.0225
UCGUCCU,-0.514

# Series 4
# Target: RING finger protein unkempt homolog, zinc fingers 1-6, GST-SBP tag (UNK, Homo sapiens, UniProt Q9C0B0, residues 30-357)
# Chain of UniProt Q9C0B0 (30-357, looked up): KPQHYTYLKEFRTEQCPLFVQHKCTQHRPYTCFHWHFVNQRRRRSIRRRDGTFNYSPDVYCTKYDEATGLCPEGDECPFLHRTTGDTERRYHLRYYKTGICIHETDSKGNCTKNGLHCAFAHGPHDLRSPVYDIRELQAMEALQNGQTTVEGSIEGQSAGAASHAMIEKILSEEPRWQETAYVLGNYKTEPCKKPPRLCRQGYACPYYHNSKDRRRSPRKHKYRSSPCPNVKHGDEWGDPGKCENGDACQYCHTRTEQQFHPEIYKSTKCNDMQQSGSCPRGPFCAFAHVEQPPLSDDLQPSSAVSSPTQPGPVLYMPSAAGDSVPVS
# Method: RNA Bind-n-Seq
# Molecule type: RNA
# Medium: in vitro
# Tested at: not given
# Setting: RNA with constant flanks, human and mouse sites, ends assumed
# Reference: input RNA pool
# Direction: higher = stronger binding
# Constant ends, left off below: GGGAGUUCUACAGUCCGACGAUC … CAACAGAGGAUUGAGCAUCA
Sequence,bound/input enrichment
UCAGAACACAAAAUCUUAUUUCUUGGAGCAGGAGAAGCUGCACUUGGAAUUGCCAAUCUCAUAGUUCUAUCAAUGGUGGAAAGUGGUCUCUCAGAAGAGGAGGCGCAGAGAAAGAUCUGG,0.339 ratio
UUACCUUUAUAAUGUAGCAGUGAAGUAAAUCAUUUUAGAACUUAAUAUCCAACUGAUCAUAGUACAUAUUGUAAAUAAAAUGUAUUUUGAUGACAGCUCAGUUGAAUAUGGAUAAUAUGU,3.27 ratio
GAGCAUAGCAAGACUCCUGAGGAGAGGAACCUCACUUCCAGCCCGGCAAUGAAUGGGGACCUAGCUAAACUGGCUUGCUCUGAAGCACCUACCGACGUUUCCAAGACCUGGGUCACCUCA,0.146 ratio
UCUUUACGAACAUUAACAUCAAUUGUCCACUUGGAGAGAACUCCCAAACUCAGCAGUAUUAUUGACUGUACUGGAACUGCCUCCUACCAUGGAUUUUUGCCAGUGCUUGUAAGGAACUGU,0.22 ratio
GAUUCAUUGCCUGCUUUACUGGAAUUCUACAAAAUACACUAUUUGGACACUACAACGUUGAUAGAACCAGUUUCCAGAUCCAGGCAGGGUAGUGGAGUGAUUCUCAGGCAGGAGGAGGCG,0.42 ratio
GCCUACCUGUAUUCUUAUGUGAUGCCCCAGGCCAUCCGGGACAUGGUGGAUGAAUACAUCAACUGUGAGGACAUUGCCAUGAACUUCCUUGUCUCCCACAUCACUCGGAAGCCCCCCAUC,0.284 ratio
CAGACACUACAGCUGGAUUUCUUGAUGAAAAUCUUGCCAAAUUACCACCACCUAAAGAAGACUAUGAAAGGAAGCUCAACUCCAGUAAAGAACUAAGAACAGUGUAUAACAUGAAGAUAA,0.502 ratio
GUCAGAAAGCAUCAGCUUUUCUCGAUGGACCCAUUCAUCUAAUGAAAUAUGCCUGUACUAUUUUAAAAAGCUUUGUAUUUCGUCAUAGAAAAGUUCAUCCCCCCAGAAUGAAAAUGAGGA,0.571 ratio
UACCAGUGUCUGCUGCAUAGAGCCUUACAUCUCCAGGAGCGGCUGCCCCCGAUUCAGCAGCACAUUUUGAAUAUGCUGGAUCCCCCCACUGAGAUGAAAGCAAAAUGUGAGAGUCCACUC,0.175 ratio
AUCCCCAACGUGCUGCGCCGCACUCGCGAGCGCAUCCUGCGCGUGGCGCCGCCGUUUGUAGUGGUCUACCUGAUCUACACAUGGGGCAACCAGGAGUUUGAGCAGUCGAAAAGGAAGAAU,0.135 ratio
GCUGGGGCAGAGCUCAGCACCCUCAGCCCUGCGGCCGUUCAUCUUGUGUGUUUGUGACUUACUUUUGUAGCCUGUCAUCUUCUGGGCCCAGAGUCAGGGUCUCUGUGUCCCCUGUGCCUC,0.232 ratio

# Series 5
# Target: Histone acetyltransferase KAT6A, winged helix 2, GST fusion (KAT6A, Homo sapiens, UniProt Q92794, residues 85-181)
# Method: protein binding microarray
# Molecule type: double-stranded DNA, one strand shown
# Medium: in vitro
# Tested at: not given
# Setting: 8-mer, flanks averaged, mean of 2 arrays, mostly near background
# Reference: not given
# Direction: higher = stronger binding
# Construct (chain): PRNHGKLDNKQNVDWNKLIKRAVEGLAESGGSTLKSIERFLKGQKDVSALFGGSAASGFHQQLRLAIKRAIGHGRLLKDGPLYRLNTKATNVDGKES
Sequence,E-score
ACAGTTCT,-0.178
GAATTGGC,-0.162
GTCTTCAC,0.0667
CAAGAGCC,0.104
GAAGAGGC,-0.0372
GATGCGGC,0.199
GTAGTAAA,-0.00696
CGCCCCCA,-0.0725
CTAACAAA,0.073
ACCTCGAG,0.0156
CCCGCGGA,0.138
CTTCGAAC,0.173
ATCCCGCC,0.159
AACAAGAC,-0.0087
CCAAACAG,0.0443
CTTTCTAC,-0.0406
ACGCCGCT,0.122
GGCGGTAA,0.0953
TCAGTTCA,-0.203
ACGCGCCA,-0.00916
GAACGGGC,0.0224
CATCCTGC,0.0213
CGAGCTTA,0.01
ACCGAGGC,-0.119
CAACGGAA,-0.022

# For quick reference, copied from above (series 1):
Change,normalised enrichment score
A3I,0.35
S2A,0.587
D11T,0.658
V4Q,-0.38
M13A,0.0615
